Measurements gathered from unrelated publications.
± marks the error that the study gave.

Molecule	test	test system	conditions	scale	measurement	result
RNRFLYIIK	AIM	peptide, CD8+ T cells from PBMC, human donors	HLA-A*30:01 restricted, unit not given	reference: positive over tested donors	frequency of responding donors	50
insulin human	item: RYR2 mRNA	EcoHIV-infected mouse, brain	i.p., dose not given	reference: PBS	fold change	1.21
COCCOCCOCCOc1cccc(C2=N[C@@](C)(C(=O)O)CS2)c1O		rat, bile duct-cannulated, bile and urine	subcutaneous, 300 µmol/kg single dose, 24 h, with: uranium 1 mg/kg s.c.		uranium excretion	314 ± 105 µg/kg
KVAGFAKFL	AIM	peptide, CD8+ T cells from PBMC, human donors	dose not given		response magnitude per positive donor	113
COCCOCCOCCOc1ccc(C2=N[C@@](C)(C(=O)O)CS2)c(O)c1		bile duct-cannulated rats, bile and urine	oral, 300 µmol/kg, 24 h, with: uranium 1 mg/kg s.c.		uranium excretion	435 ± 131 µg/kg
Cc1c(COC(=O)[C@@H]2[C@H](/C=C(\Cl)C(F)(F)F)C2(C)C)cccc1-c1ccccc1 (racemic)	antagonist, qPCR in vivo, item: Shp and Bsep mRNA	Oryzias latipes	dose not given		activity call	toxic
FVNEFYAYLR	AIM	peptide, CD8+ T cells from PBMC, human donors	dose not given		response magnitude per positive donor	108
COc1ccc(C2=N[C@@H](C(=O)O)CS2)c(O)c1		bile duct-cannulated rats, bile and urine	oral, 300 µmol/kg, 24 h, with: uranium 1 mg/kg s.c.		uranium excretion	260 ± 45 µg/kg
CC[C@H](C)[C@H](NC(=O)[C@H](Cc1ccc(O)cc1)NC(=O)[C@H](Cc1c[nH]c2ccccc12)NC(=O)[C@H](CC(C)C)NC(C)=O)C(=O)N[C@@H](CCCCN)C(N)=O	DSC	SOPC/cholesterol 6/4 bilayers	5 mol%, pH 7.40		transition enthalpy	0.1 kcal/mol
CS/C(S)=N/CCCC[S+](C)[O-] (racemic)	RT-PCR, item: Pon1	rat, liver	oral gavage, 200 mg/kg, 96 h, dosed for four days	reference: vehicle	mRNA fold change	1.13
LPYGK	DSC	peptide, 6/4 SOPC/cholesterol bilayers	10 mol%, pH 7.40, SOPC chain melting transition		transition enthalpy	0.3 kcal/mol
YLQPRTFLL	AIM	peptide, CD8+ T cells from PBMC, human donors	HLA-A*02:01 restricted, unit not given	reference: positive over tested donors	frequency of responding donors	17
LPYAK	DSC	peptide, 6/4 SOPC/cholesterol bilayers	15 mol%, pH 7.40, SOPC chain melting transition		transition enthalpy	0.4 kcal/mol
C/C=C1\NC(=O)C(C(C)O)NC(=O)C(CCCN)NC(=O)C(CCO)NC(=O)CNC(=O)C(CCN)NC(=O)C(NC(=O)CC(O)CCCCCCCCCCC)COC(=O)C(C(O)CCl)NC(=O)C(C(O)C(=O)O)NC1=O (stereo not drawn)	calcein leakage	DOPC/DOPG/CHOL liposomes	concentration not given, with: 40 mM CaCl2		maximum fusion	30 ± 6%
RIAGHHLGR	AIM	peptide, CD8+ T cells from PBMC, human donors		reference: positive over tested donors	frequency of responding donors	50%
COc1ccc(C2=N[C@@](C)(C(=O)O)CS2)c(O)c1		bile duct-cannulated rats, bile and urine	subcutaneous, 300 µmol/kg, 24 h, with: uranium 1 mg/kg s.c.		uranium excretion	339 ± 140 µg/kg
LEAPFLYLY	AIM	peptide, CD8+ T cells from PBMC, human donors		reference: positive over tested donors	frequency of responding donors	50%
O=C(O)CN(CCN(CC(=O)O)CC(=O)O)CCN(CC(=O)O)CC(=O)O		bile duct-cannulated rats, bile and urine	subcutaneous, 150 µmol/kg, 24 h, with: uranium 1 mg/kg s.c.		uranium excretion	276 ± 88 µg/kg

Repeated from above:
Molecule	test	test system	conditions	scale	measurement	result
YLQPRTFLL	AIM	peptide, CD8+ T cells from PBMC, human donors	HLA-A*02:01 restricted, unit not given	reference: positive over tested donors	frequency of responding donors	17
LPYAK	DSC	peptide, 6/4 SOPC/cholesterol bilayers	15 mol%, pH 7.40, SOPC chain melting transition		transition enthalpy	0.4 kcal/mol
